Results gathered from unrelated publications.
Parts stem from different laboratories: compare values within a part only. Changes are numbered by the printed parent chain.

Block 1 — technique: universal PBM; molecule type: double-stranded DNA, one strand shown; sample: in vitro; concentration: not given; reading: higher = stronger binding
Target: Sal-like protein 4, full length isoform B (SALL4, Homo sapiens, UniProt Q9UJQ4-2, residues 1-616)
Notes: 8-mer, flanks averaged, mean of replicates
| Oligonucleotide | E-score |
| --- | --- |
| CTATAGAA | 0.262 |
| ACATAGAG | 0.014 |
| AAGAGTGG | -0.275 |
| ACTGGCGG | -0.147 |
| ACACCCTG | -0.259 |
| CGTGTCAG | -0.14 |
| GTTGTAGA | 0.206 |
| TAGGCGAA | 0.162 |

Block 2 — technique: protein-binding microarray; molecule type: double-stranded DNA, one strand shown; sample: in vitro; concentration: 2200 nM top; notes: 60-bp whole probe; added: salmon DNA 0.4 mg/ml; reference: random background probes; reading: higher = stronger binding; all sequences stand within: GCCTAGCAC … GTCTTGATTCGCTTGACGCTGCTG
Target: Interferon regulatory factor 7, full length, phosphomimetic (IRF7, Homo sapiens, UniProt Q92985, residues 1-503, S471D/S472D/S475D/S476D/S477D/S483D/S484D/S487D)
Target sequence (chain): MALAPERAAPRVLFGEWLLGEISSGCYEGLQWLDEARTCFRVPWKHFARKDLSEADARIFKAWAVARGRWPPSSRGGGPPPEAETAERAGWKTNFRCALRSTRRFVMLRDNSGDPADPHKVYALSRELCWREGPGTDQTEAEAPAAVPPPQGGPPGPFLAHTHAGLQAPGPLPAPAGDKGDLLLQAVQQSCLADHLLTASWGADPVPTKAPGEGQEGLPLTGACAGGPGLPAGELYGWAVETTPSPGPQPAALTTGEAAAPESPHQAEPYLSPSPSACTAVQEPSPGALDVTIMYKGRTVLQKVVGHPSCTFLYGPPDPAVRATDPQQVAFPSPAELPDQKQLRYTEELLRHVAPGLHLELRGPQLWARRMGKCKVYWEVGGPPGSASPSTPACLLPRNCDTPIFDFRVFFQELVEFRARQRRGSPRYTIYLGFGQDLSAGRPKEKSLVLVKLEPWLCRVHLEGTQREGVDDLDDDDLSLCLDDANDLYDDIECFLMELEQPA
| Oligonucleotide | fitted relative affinity |
| --- | --- |
| GACGATACCGGGTTTCGAGACGTGCTA | 1.76 z-score |
| TTAGATTTTGGGTTTCGATTAGTGCTA | 3.17 z-score |
| TCAGAACTGAGTATCGATTAGTGCTAG | -0.285 z-score |
| GACGGACCGCTTTTCCTGACGTGCTAG | 0.624 z-score |
| GAGGGACTGCTTATCCTGACGTGCTAG | -0.0937 z-score |
| TCATGTGTATATATAATACTGTGCTAG | 0.674 z-score |
| GACGGTATCCGACTGGGGACGTGCTAG | -0.393 z-score |
| TCAAACTTCCCAATGGTACTGTGCTAG | 0.781 z-score |
| TTAGATATCGGGTTTCGATCAGTGCTA | 1.8 z-score |
| TTCGATTTCAGACTGGATTAGTGCTAG | 1.36 z-score |

Block 3 — target: CCNB2, cyclin fold, Cln2 fusion (human); technique: yeast growth competition, sequencing; sample: yeast; notes: weak parent motif; reference: not given; reading: higher = stronger binding
Starting sequence: ORC1 docking peptide (human); PRARKRLELGNLG
| Variant | normalised enrichment score |
| --- | --- |
| N11P | 0.807 |
| G13V | 0.283 |
| L7Q | 0.446 |
| L12E | 0.464 |
| P1F | -0.11 |
| G13Y | -0.35 |
| L7K | 1.71 |

Single results of other studies
| Molecule | target | assay | test system | setting | how to read | quantity | result |
| --- | --- | --- | --- | --- | --- | --- | --- |
| PhoQ, residues 284 288 289 292 302 303 NLALSC | PhoP, residues 12 14 15 18 19 NMSFL (Escherichia coli, UniProt P23836) | Sort-seq, measured: YFP reporter | E. coli | PhoQ-PhoP variant library, added: 10 µM Mg2+ | reference: high Mg2+ state, higher = stronger signaling | fold induction | 1.4 |

For quick reference, copied from above (block 2):
| Oligonucleotide | fitted relative affinity |
| --- | --- |
| GACGGACCGCTTTTCCTGACGTGCTAG | 0.624 z-score |
| GAGGGACTGCTTATCCTGACGTGCTAG | -0.0937 z-score |
| TCATGTGTATATATAATACTGTGCTAG | 0.674 z-score |
